Measurements collected from several papers.
Numbered parts are unrelated; each lists some results of a single study. Positions count from the first letter of the parent shown.

Study 1 — technique: protein-binding microarray; form: double-stranded DNA, one strand shown; medium: in vitro; concentration: 2200 nM top; notes: 60-bp whole probe; added: salmon DNA 0.4 mg/ml; baseline: random background probes; direction: higher = stronger binding; endpoint: fitted relative affinity; shared flanks, not repeated: GCCTAGCAC … GTCTTGATTCGCTTGACGCTGCTG
Target: Interferon regulatory factor 7, full length, phosphomimetic (IRF7, Homo sapiens, UniProt Q92985, residues 1-503, S471D/S472D/S475D/S476D/S477D/S483D/S484D/S487D)
Target sequence (chain): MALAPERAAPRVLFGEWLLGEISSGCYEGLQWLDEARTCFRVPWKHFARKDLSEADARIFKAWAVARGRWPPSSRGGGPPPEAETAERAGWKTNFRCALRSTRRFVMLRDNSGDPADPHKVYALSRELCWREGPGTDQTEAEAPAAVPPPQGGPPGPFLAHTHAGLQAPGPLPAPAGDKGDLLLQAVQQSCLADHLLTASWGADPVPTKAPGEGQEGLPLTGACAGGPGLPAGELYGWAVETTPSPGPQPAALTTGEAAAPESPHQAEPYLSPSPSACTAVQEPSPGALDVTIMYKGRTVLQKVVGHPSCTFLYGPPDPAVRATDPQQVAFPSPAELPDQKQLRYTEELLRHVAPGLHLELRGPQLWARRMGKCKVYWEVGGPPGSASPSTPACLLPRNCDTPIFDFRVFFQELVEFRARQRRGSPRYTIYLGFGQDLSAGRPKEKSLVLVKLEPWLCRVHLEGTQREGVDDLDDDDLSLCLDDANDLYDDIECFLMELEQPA
Sequence = TCAAGCCTAAGGTTTAGGACTGTGCTA; result = -1 z-score
Sequence = GACGGTATCCTTCTCCAGACGTGCTAG; result = 0.899 z-score
Sequence = TTAGGACTGGGGTTCGGTTAGTGCTAG; result = -0.231 z-score
Sequence = GACGGTTTCGGGACTGCGGACGTGCTA; result = 3.83 z-score
Sequence = TTAGGACAGGGACTGGGTTAGTGCTAG; result = -1.05 z-score
Sequence = GACTGTATCCTTTTCCTGACGTGCTAG; result = 1.76 z-score
Sequence = TTCTCTTTCCTTCTTGATGCGTGCTAG; result = 3.27 z-score
Sequence = TTAGGTTTCGGGACTGGTTTAGTGCTA; result = 3.34 z-score

Study 2 — technique: RNA Bind-n-Seq; form: RNA; medium: in vitro; concentration: 365 nM; baseline: no-protein control; direction: higher = stronger binding; endpoint: RBNS enrichment (R)
Target: RNA binding protein fox-1 homolog 2, RRM domain, GST-SBP tag (RBFOX2, Homo sapiens, UniProt O43251-10, residues 100-194)
Notes: natural RNA segment, single round, ends assumed
Shared flanks, not repeated: GGGAGUUCUACAGUCCGACGAUC … UGGAAUUCUCGGGUGCCAA
Target sequence (chain): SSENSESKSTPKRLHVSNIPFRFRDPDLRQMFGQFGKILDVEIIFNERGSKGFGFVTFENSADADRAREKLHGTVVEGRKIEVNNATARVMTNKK
Sequence = CGCAGGCAUCUUGACAUCUUAGUAACUGCCUUUUUAAUCCCAGUGGCCUGUACCAUAUUAUGGAGAACUGUUAACUGCUUAAUUGGGUAAUUUUCAAAGAAAGUGAUGUU; result = 0.325
Sequence = AUUAGUUUAAAGGUAAAUAAAGUCAGCUGAAUCUACAUGUCUCUUGUUUUAUUUCUCUCUAAACUUGAAAACAGUAAAUCUGCAGAUACUGUGAGGCACAAAUUAUACUG; result = 0.521
Sequence = UGUGAGAAUGUUUUCAAAAAGCCAAAUAAAGUCACAGAUAUUUUAGCUUCUUUCCCAGAAUAAACUUAUCAUGCAUUUGCUUACCUAAAAUUUAAGUUUCAAAUUAGUUC; result = 2.19
Sequence = GCACAUUUUUGAGUUUUCCCACAUUAUUUGUCUCCAUGAUACCACUCAAGCAGUGUGCUGGACCUAAAAUACUGACUUUAGUUAGUAUCCUUGGAUUUUUAGAUUCCCAG; result = 0.339
Sequence = UCUGCAGCCCUCGGGACCCCACUCGGAGGGUGCCCUCUGCUCAGGCCUCCCUAGCACCUCCCCCUAACCAAAUUCUCCCUGGACCCCAUUCUGAGCUCCCCAUCACCAUG; result = 0.371
Sequence = UGAAAUAAGGUUUCAAUAUACAUUUACAUACUAUAUAUAUAUUUGGCAACUUGUGUUUGUAUAUAAAUAUAUAUAUAUAUAUAUAUGUUUAUGUAUAUAUGUGAUUCUGA; result = 2.53
Sequence = UGGGGCCCCUGGCCCAGAGUUGCUGUGCCGUGUCCAAGGGCCGUGCCCUUGCCCUUGGAGCUGCCGUGCCUGUGUCCUGAUGGCCCAAAUGUCAGGGUUCUGCUCGGCUU; result = 0.438
Sequence = UUUGUAGGCAAGCCUCACAAGCCGAGGGACAGGACCGGGCUGUGUGAAAGUGGCUUUUGACAGCUUCUCUCUUUUUGGUGUAAUGUUUUACAUGUCCUGUGUCCUGGGGA; result = 0.318
Sequence = CUAUCAGAAUUGCAGAUAGUCAUGUUGGGCUAACAGUCAAUUGGAUAUAUUCCUUUACCUCACAUGACCCCAGCAACUGUGGUGGUAUCUAGAGGUGAAACAGGCAAGUG; result = 0.713
Sequence = UACCCACGCCAUUUUACGUCUCCUUCACUGAAGGGCUAGAGUUUUAACUUUUAAUUUUUUAUAUUUAAAUGUAGACUUUUGACACUUUUAAAAAACAAAAAAUGACAAGA; result = 0.638

Study 3 — target: CCNB3, cyclin fold, Cln2 fusion (human); technique: yeast growth competition, sequencing; medium: yeast; notes: weak parent motif; baseline: not given; direction: higher = stronger binding; endpoint: normalised enrichment score
Starting sequence: CDC6 docking peptide (human); TLKGRRLVFDNQL
Variant = F9R; result = -0.0165
Variant = G4Y; result = -0.348
Variant = N11Q; result = 0.127
Variant = D10A; result = -0.124
Variant = Q12A; result = 0.287
Variant = G4W; result = 0.454

Further values, each from its own experiment
Substance = PhoQ, residues 284 288 289 292 302 303 SCEHLI; target = PhoP, residues 12 14 15 18 19 MHTVL (Escherichia coli, UniProt P23836); assay = Sort-seq, measured: YFP reporter; system = E. coli; setting = PhoQ-PhoP variant library, added: 10 µM Mg2+; scale = baseline: high Mg2+ state, higher = stronger signaling; endpoint = fold induction; result = 14.1

Excerpt of the above (study 3):
Variant = Q12A; result = 0.287
Variant = D10A; result = -0.124
Variant = G4W; result = 0.454
